Experimental data pooled from the literature.
Each line is one published result; not all experiments were run side by side. Several values in a cell are separate wells, animals, samples, runs or records.
EGFR L858R: Epidermal growth factor receptor (EGFR, Homo sapiens, UniProt P00533, L858R)
EGFR: Epidermal growth factor receptor (EGFR, Homo sapiens, UniProt P00533)
EGFR del747-752/P753S: Epidermal growth factor receptor (EGFR, Homo sapiens, UniProt P00533, del747-752/P753S)
EGFR L861Q: Epidermal growth factor receptor (EGFR, Homo sapiens, UniProt P00533, L861Q)
EGFR G719C: Epidermal growth factor receptor (EGFR, Homo sapiens, UniProt P00533, G719C)

Compound = COCC12C(=O)NC3C4(C(OC)CC1O)C1CC5(O)C(OC)C(O)C(OC(C)=O)(C1C5OC(=O)c1ccccc1)C3(O)C(OC)C24 (centres unmarked); target = EGFR L858R; test = kinase activity, inhibitor, ProQinase kinase profiling; setting = 25 µM; scale = reference: control; endpoint = remaining activity; result = 96% and 94%
Compound = COc1c(OCCCN2CCOCC2)ccc2c1N=C(NC(=O)c1cnc(N)nc1)N1CCN=C21; target = EGFR; test = kinase activity, inhibitor; setting = 1 µM; scale = reference: untreated control; endpoint = remaining activity; result = 100%
Compound = COc1cc(OC)c(F)c(/C=C/c2cnc3ccn(S(=O)(=O)c4cn(CCF)cn4)c3n2)c1F; target = EGFR; setting = 1000 nM; endpoint = inhibition; result = 0%
Compound = CC(C)[C@H](NC(=O)[C@H](CCC(=O)O)NC(=O)[C@H](CCC(=O)O)NC(=O)[C@H](Cc1ccc(O)cc1)NC(=O)[C@H](CCC(=O)O)NC(=O)[C@H](CC(=O)O)NC(=O)[C@H](CC(=O)O)NC(=O)[C@H](CCC(=O)O)NC(=O)c1ccc2c(c1)C1(OC2=O)c2ccc(O)cc2Oc2cc(O)ccc21)C(N)=O; target = EGFR; test = enzyme activity, substrate; endpoint = Km; result = 40.2 µM
Compound = O=C=[N][Ru-4]123([n]4c5ccc(O)cc5c5c6c(c7cc(F)c[n+]1c7c54)C(=O)NC6=O)[S+]1CC[S+]2CC[S+]3CC1 (centres unmarked); target = EGFR L858R; test = enzyme activity; setting = 100 nM, human enzyme, added: 10 µM ATP; scale = reference: untreated; endpoint = remaining activity; result = 88%
Compound = Nc1ncc2c(n1)-c1c([nH]c3ccc(C4=CCOCC4)cc13)CCC2; target = EGFR del747-752/P753S; test = binding, competition with immobilised ligand; setting = 1 µM; endpoint = remaining binding; result = 76%
Compound = CCN1CCN(Cc2ccc(C(=O)Nc3ccc(C)c(NCc4cnc5[nH]ccc5c4OC)c3)cc2C(F)(F)F)CC1; target = EGFR L858R; test = binding, competition with immobilised ligand; setting = 1 µM; endpoint = remaining binding; result = 1.6%
Compound = CCN1CCN(Cc2ccc(NC(=O)c3ccc(C)c(NC(=O)c4cncc(-c5cccs5)c4)c3)cc2C(F)(F)F)CC1; target = EGFR L861Q; test = binding, competition with immobilised ligand; setting = 1 µM; endpoint = remaining binding; result = 0.1%
Compound = CC(C)=CC1OC(C)(C)C2C=C3C(=O)C(Cl)=CC(O)C3C3C(O)C4OC4C(=O)C132 (centres unmarked); target = EGFR G719C; test = cell-free assay, competition with immobilised ligand; setting = 10 µM; endpoint = remaining binding; result = 96%
Compound = C=C1CCCCCCCCCC(CO)C1=O (centres unmarked); target = EGFR L858R; test = cell-free assay; setting = 10 µM; endpoint = remaining signal; result = 100%
Compound = C=CC(=O)N1CCc2ccc(-n3c(=O)ccc4cnc5ccc(-c6cnn(C)c6)cc5c43)cc21; target = EGFR del747-752/P753S; test = KINOMEscan; setting = 1 µM; scale = reference: control; endpoint = remaining binding; result = 98%
Compound = COc1ccc(NC(=O)Nc2ccc3c(c2)C(=O)N(C(C)CO)CC(C)C(CN(C)Cc2ccc4c(c2)OCO4)O3)cc1 (centres unmarked); target = EGFR (Homo sapiens, UniProt P00533, L858R/T790M); test = kinase activity; setting = 0.03 µM, T790M/L858R; scale = reference: control; endpoint = remaining activity; result = 95%
Compound = O=c1c(-c2ccc(Cl)c(CN3CCOCC3)c2)coc2cc(O)ccc12; target = EGFR; test = enzyme activity, inhibitor; setting = 1 µM; endpoint = remaining activity; result = 95%
Compound = Cc1cnc2nc1Nc1cccc(c1)COC/C=C/COCc1cc(ccc1OCCN1CCOCC1)N2; target = EGFR L858R; setting = concentration not given; scale = reference: untreated control; endpoint = remaining activity; result = 82%
Compound = CNC(=O)C1CCN(c2cc(C)c(F)cc2NC(=O)c2ccc(-c3cc(O)ccc3C)c(C)c2)CC1; target = EGFR L861Q; test = binding, competition with immobilised ligand; setting = 1 µM; endpoint = remaining binding; result = 54%
Compound = CNC1C[S+]2CC[S+]3CC[S+](C1)[Ru-4]321([N]=C=S)[n]2c3ccc(OC)cc3c3c4c(c5cc(F)c[n+]1c5c32)C(=O)NC4=O (centres unmarked); target = EGFR G719C; test = KinomeScan; setting = 0.1 µM; scale = reference: untreated; endpoint = remaining binding; result = 100%
Compound = COc1c(Cl)cccc1Nc1c(-c2ccncc2C#C[C@@]2(C)CCCN2C(=O)/C=C/CN(C)C)[nH]c2c1C(=O)NCC2; target = EGFR; test = cysteine engagement, chemoproteomic profiling, measured: peptide 791-802; system = NCI-H2073; setting = 10 µM, 2 h; scale = reference: DMSO, lower = stronger engagement; endpoint = log2 fold change; result = 2.98
